Measurements gathered from unrelated publications.
Numbered parts are unrelated; each lists some results of a single study. Substitutions count along the parent as printed.

Block 1 — technique: protein-binding microarray; molecule type: double-stranded DNA, one strand shown; matrix: in vitro; tested at: 0.8 µM; notes: whole 60-bp probe, no competitor; direction: higher = stronger binding; measurement: fluorescence intensity
Target: Centromere-binding protein 1, full length, N-terminal tag (CBF1, Saccharomyces cerevisiae, UniProt P17106, residues 1-351)
UniProt P17106, sequence (whole entry, looked up): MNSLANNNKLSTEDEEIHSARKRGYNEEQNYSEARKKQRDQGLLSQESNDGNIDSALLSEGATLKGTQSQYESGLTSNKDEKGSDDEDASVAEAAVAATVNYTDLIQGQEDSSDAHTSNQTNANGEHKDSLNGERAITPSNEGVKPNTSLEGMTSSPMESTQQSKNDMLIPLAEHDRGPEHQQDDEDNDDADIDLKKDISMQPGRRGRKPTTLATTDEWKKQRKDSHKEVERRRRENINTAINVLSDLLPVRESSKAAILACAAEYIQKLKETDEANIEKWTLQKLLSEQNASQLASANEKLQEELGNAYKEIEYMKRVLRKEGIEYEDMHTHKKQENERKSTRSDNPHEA
Sequence = GAAATTTGCAAACATCATGCTTTGATCTTTGAATAGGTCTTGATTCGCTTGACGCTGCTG; result = 559 a.u.
Sequence = GAAAAAGCAAACAGACACGTTAAGAAGGTAAGATAGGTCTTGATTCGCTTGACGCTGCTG; result = 551 a.u.
Sequence = GAAATATACTGCTATCACATGCTAAAACAAGAGTAGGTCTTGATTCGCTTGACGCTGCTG; result = 2030 a.u.
Sequence = CTAATCTGTTAATTGAGCATGACATGAAAATTTTTCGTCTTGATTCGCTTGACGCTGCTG; result = 657 a.u.
Sequence = GAACCAAACGAAACCCCCGTGCTTCTGTTTCTCTAGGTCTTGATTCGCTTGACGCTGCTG; result = 682 a.u.
Sequence = CTACCAACAAAGCATCACGCTGTCGTATCTCAATTCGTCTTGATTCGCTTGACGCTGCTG; result = 636 a.u.
Sequence = GAAAAAAAGACTTGTGATGTCATACACAGATTGTAGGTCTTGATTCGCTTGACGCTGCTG; result = 610 a.u.
Sequence = GAACTACTGGAATGTCTGATGTCTTCGCTTATATAGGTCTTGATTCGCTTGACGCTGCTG; result = 544 a.u.
Sequence = GAATCTGACAACGACCACGATTCCCCCGACAATTAGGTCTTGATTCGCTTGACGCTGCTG; result = 489 a.u.
Sequence = CCTAACTACTATACGCACGTGCTATAGCTTCGTACAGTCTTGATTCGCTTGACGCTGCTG; result = 14600 a.u.
Sequence = CTAATGTCCAATCATAAGCTGATGTTGCTTTTATTCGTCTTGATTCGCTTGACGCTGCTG; result = 532 a.u.
Sequence = CTAGAAAGAATGCTCAACGTGAGTATGATAACCTTCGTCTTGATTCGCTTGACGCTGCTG; result = 579 a.u.
Sequence = CTAAGGAAAAAAGGTGGCGTCGAAGACTGCTAGTTCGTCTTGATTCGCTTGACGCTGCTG; result = 531 a.u.
Sequence = TGTACGAAGCTATATCATCAGTGTATAGTAGTTAGGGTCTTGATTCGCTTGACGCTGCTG; result = 534 a.u.
Sequence = CTAGTAATCAATACGGTGGTGACGACGATTACTTTCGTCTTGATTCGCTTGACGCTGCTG; result = 513 a.u.
Sequence = CTAACCACGTTTCGTCACCGGTCATAATTGGAATTCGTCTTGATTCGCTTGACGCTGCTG; result = 569 a.u.
Sequence = GAAAAAAAACTATGAAACGTCACGAAAAAATGATAGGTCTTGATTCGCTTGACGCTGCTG; result = 591 a.u.
Sequence = CTATAAAGAGGGACTCATATGATCTTATGAAATTTCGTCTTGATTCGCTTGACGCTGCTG; result = 554 a.u.
Sequence = CTATCTATTTACCGGGTGATGGCGGCGCGCCACTTCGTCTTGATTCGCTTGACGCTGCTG; result = 498 a.u.
Sequence = CCTAACTACTATACGGTGGTGATATAGCTTCGTACAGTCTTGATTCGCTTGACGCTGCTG; result = 515 a.u.
Sequence = GAAGCCATTGCTTACCGCGTGCAAGATCCGTAATAGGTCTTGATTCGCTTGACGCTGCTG; result = 592 a.u.
Sequence = CCTAACTACTATATCCACATGCTATAGCTTCGTACAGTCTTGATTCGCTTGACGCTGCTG; result = 568 a.u.
Sequence = CTAAATAAAATCACACCGACCACGCTTACATGGTTCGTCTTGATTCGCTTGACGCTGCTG; result = 557 a.u.
Sequence = CTATGGCATCAACGTGATTTTTGGAAGAAAGAATTCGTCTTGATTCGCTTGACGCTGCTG; result = 1410 a.u.
Sequence = CTAAATTTTCAATAGCATGTGCATATGTTTAATTTCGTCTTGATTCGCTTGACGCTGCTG; result = 804 a.u.

Block 2 — technique: aptamer microarray, sandwich; molecule type: DNA with 2'F-ANA; matrix: in vitro; tested at: 200 nM; together with: Cy3 exosite-II aptamer, 400 nM; direction: higher = stronger binding; measurement: mean fluorescence intensity; sequence: GGTTGGTGTGGTTGG
Target: Prothrombin, mature alpha-thrombin (F2, Homo sapiens, UniProt P00734)
Notes: whole 15-mer aptamer, many near background
Modification = 2'F-ANA at 1 3 6 7 9 11 15; result = 189 a.u.
Modification = 2'F-ANA at 3 4 6 7 11 12 14 15; result = 317 a.u.
Modification = 2'F-ANA at 4 6 12 13; result = 371 a.u.
Modification = 2'F-ANA at 3 4 5 7 9 11 12 13; result = 87.7 a.u.
Modification = 2'F-ANA at 1 2 3 5 6 8 9 10 11 12 15; result = 60.5 a.u.
Modification = 2'F-ANA at 4 5 8 10 11 12 15; result = 64.7 a.u.
Modification = 2'F-ANA at 3 4 6 7 8 9 12 14; result = 323 a.u.
Modification = 2'F-ANA at 2 4 5 6 7 8 10 11 13 15; result = 65.5 a.u.
Modification = 2'F-ANA at 2 3 4 5 6 7 14 15; result = 48.8 a.u.
Modification = 2'F-ANA at 4 8 9 11 12 14; result = 95.9 a.u.
Modification = 2'F-ANA at 1 3 7 8 9 12 13 15; result = 557 a.u.
Modification = 2'F-ANA at 2 3 4 6 7 8 9 10 11 13; result = 202 a.u.
Modification = 2'F-ANA at 1 3 4 6 7 9 10 14; result = 49.3 a.u.
Modification = 2'F-ANA at 2 4 9 12; result = 582 a.u.
Modification = 2'F-ANA at 1 6 10 11 13 14; result = 60.9 a.u.
Modification = 2'F-ANA at 2 5 11 12 13 14; result = 53.8 a.u.
Modification = 2'F-ANA at 3 6 7 10; result = 557 a.u.

Block 3 — target: CCNB1, cyclin fold, Cln2 fusion (human); technique: yeast growth competition, sequencing; matrix: yeast; notes: weak parent motif; reference: not given; direction: higher = stronger binding; measurement: normalised enrichment score
Parent: SAMHD1 docking peptide (human); ASKSRVQLFKDDP
Variant = R5S; result = -0.246
Variant = K3N; result = 0.536
Variant = L8S; result = -0.0778
Variant = F9R; result = 0.0217
Variant = S2L; result = 0.689
Variant = F9Y; result = 0.142
Variant = S4Y; result = 0.408
Variant = S4L; result = 0.742
Variant = R5I; result = 0.457
Variant = F9S; result = 0.226
Variant = S2A; result = 0.486
Variant = D11F; result = 0.322
Variant = Q7R; result = 0.792
Variant = V6S; result = -0.232
Variant = D11A; result = 0.0508
Variant = K3M; result = 0.167
Variant = K10N; result = 0.386
Variant = R5T; result = 0.155
Variant = D12I; result = 0.235
Variant = L8G; result = 0.206
Variant = V6A; result = 0.21
Variant = V6N; result = 0.113
Variant = K3C; result = 0.347
Variant = F9P; result = 0.352
Variant = F9T; result = -0.0868

Block 4 — technique: RNA Bind-n-Seq; molecule type: RNA; matrix: in vitro; tested at: 200 nM; notes: whole 134-nt RNA, ends assumed; together with: 150 mM LiCl; reference: input library; direction: higher = stronger binding; measurement: log2 enrichment; library: 7-deaza-guanosine replaces G
Target: Ras GTPase-activating protein-binding protein 1, full length (G3BP1, Homo sapiens, UniProt Q13283)
UniProt Q13283, sequence (whole entry, looked up): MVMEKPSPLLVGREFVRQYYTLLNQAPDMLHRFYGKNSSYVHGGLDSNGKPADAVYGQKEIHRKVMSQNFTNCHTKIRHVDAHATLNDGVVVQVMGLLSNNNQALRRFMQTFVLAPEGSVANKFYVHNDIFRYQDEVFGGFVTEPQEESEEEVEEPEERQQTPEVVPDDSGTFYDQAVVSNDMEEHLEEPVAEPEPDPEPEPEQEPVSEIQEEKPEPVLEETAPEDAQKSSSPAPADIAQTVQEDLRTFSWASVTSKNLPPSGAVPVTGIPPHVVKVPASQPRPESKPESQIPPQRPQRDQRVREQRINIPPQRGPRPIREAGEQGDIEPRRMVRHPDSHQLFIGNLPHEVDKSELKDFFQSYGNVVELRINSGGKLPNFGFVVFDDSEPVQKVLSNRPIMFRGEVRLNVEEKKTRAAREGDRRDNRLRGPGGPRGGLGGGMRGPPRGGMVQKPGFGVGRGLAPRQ
Sequence = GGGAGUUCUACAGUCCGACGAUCCACAGUCAACACGCACCCACACAGACACAGAGGGAAGGGGUUGGGAUGGGGACAGGGUGCACAGCAGGGCGGGGUAGGACCCCAGCCCCUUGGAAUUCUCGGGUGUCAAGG; result = 0.282
Sequence = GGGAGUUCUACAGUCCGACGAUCUGGCCCUGGUGGCAUGCGGGGAGGAAGAGGUGGCCUCAUGGAUCGUGGUGGUCCCGGUGGAAUGUUCGGAGGUGGCCGUGGUGGAGACAGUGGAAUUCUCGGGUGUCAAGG; result = -0.0174
Sequence = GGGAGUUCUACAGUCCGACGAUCUCAAGUCCUGUGCUACACAUCGUAUGUACCGAAUCGGGCCCGGCCCGGGCCCGGAAAGUAUUAUGUUACGCCGUUCGGAUCUGCACUUCCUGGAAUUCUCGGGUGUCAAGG; result = -0.119
Sequence = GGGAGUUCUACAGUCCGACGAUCCAAGUCCUGUGCUACACAUCGUAUGUACCGAAUCAAACCCAAACCCAAACCCAAAAAAGUAUUAUGUUACGCCGUUCGGAUCUGCACUUCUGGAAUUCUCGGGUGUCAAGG; result = 0.224
Sequence = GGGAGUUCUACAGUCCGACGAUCUGGCCCUGGUGGCAUGCGGGGAGGAAGAGGUGGCCUAAUGGAUCGUGGUGGUCCCGGUGGAAUGUUCAGAGGUGGCCGUGGUGGAGACAGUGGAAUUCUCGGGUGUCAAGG; result = 0.581
Sequence = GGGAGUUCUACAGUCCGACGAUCAGUCCUGUGCUACACAUCGUAUGUACCGAAUCGGGAAAAAGGGAGGGAAAAAAAGGGAAAGUAUUAUGUUACGCCGUUCGGAUCUGCACUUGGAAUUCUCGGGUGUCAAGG; result = -0.25
Sequence = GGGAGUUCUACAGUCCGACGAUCCCUGUGCUACACAUCGUAUGUACCGAAUCGGGCCCCCCGGGGCCCCCCGGGGCCCCCCGGAAAGUAUUAUGUUACGCCGUUCGGAUCUGCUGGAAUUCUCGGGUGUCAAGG; result = -1.78
Sequence = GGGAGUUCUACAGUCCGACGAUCCCUCAAGUCCUGUGCUACACAUCGUAUGUACCGAAUCGGGGCGGGCGGCGGGAAAGUAUUAUGUUACGCCGUUCGGAUCUGCACUUCCAGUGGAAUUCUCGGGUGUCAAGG; result = -0.342
Sequence = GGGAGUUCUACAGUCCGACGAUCCCUGUGCUACACAUCGUAUGUACCGAAUCGGGGUUUUUUUGGGGAAAGGGGAAAAAGGGGAAAGUAUUAUGUUACGCCGUUCGGAUCUGCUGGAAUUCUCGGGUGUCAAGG; result = 0.428
Sequence = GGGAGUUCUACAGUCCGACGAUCGUCCUGUGCUACACAUCGUAUGUACCGAAUCAAACCCCCAAACCCCCAAAUUUUUAAAAAAGUAUUAUGUUACGCCGUUCGGAUCUGCACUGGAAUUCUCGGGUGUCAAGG; result = 0.734
Sequence = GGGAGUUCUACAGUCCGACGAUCACCAAAAAGGUGGGCAUCUUUGGGAAGUGGGGCAAGGGGGGGAUAGGGAGGGGGGUAACACUUUGGGAACAGGUGGUCCCAGGUCGUUUCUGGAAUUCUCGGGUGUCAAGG; result = 0.344

Mixed results
Substance = YWHAQ (Homo sapiens, UniProt P27348); tested on = YWHAH (Homo sapiens, UniProt Q04917); assay = cross-linking MS; setting = hits only; measurement = interaction screen; result = cross-linked
Substance = PhoQ, residues 284 288 289 292 302 303 AEGLLW; tested on = PhoP, residues 12 14 15 18 19 LHATL (Escherichia coli, UniProt P23836); assay = Sort-seq, item: YFP reporter; system = E. coli; setting = PhoQ-PhoP variant library, together with: 10 µM Mg2+; how to read = reference: high Mg2+ state, higher = stronger signaling; measurement = fold induction; result = 8.72
Substance = DDX27 (Homo sapiens, UniProt Q96GQ7); tested on = RBM28 (Homo sapiens, UniProt Q9NW13); assay = cross-linking MS; system = cell fractions; setting = together with: DSSO; measurement = cross-linked residues; result = K252 to K746
Substance = UPF1 (Homo sapiens, UniProt Q92900); tested on = UPF2 (Homo sapiens, UniProt Q9HAU5); assay = cross-linking MS; system = cell fractions; setting = together with: DSSO; measurement = cross-linked residues; result = K929 to K863
Substance = SURF6 (Homo sapiens, UniProt O75683); tested on = SPTB (Homo sapiens, UniProt P11277); assay = cross-linking MS; system = cell fractions; setting = together with: DMTMM; measurement = cross-linked residues; result = E316 to K1641

For quick reference, copied from above (block 4):
Sequence = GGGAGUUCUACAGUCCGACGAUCCAAGUCCUGUGCUACACAUCGUAUGUACCGAAUCAAACCCAAACCCAAACCCAAAAAAGUAUUAUGUUACGCCGUUCGGAUCUGCACUUCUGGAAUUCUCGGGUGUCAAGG; result = 0.224
Sequence = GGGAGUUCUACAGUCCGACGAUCUGGCCCUGGUGGCAUGCGGGGAGGAAGAGGUGGCCUAAUGGAUCGUGGUGGUCCCGGUGGAAUGUUCAGAGGUGGCCGUGGUGGAGACAGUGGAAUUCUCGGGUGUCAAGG; result = 0.581
Sequence = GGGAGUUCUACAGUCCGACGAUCAGUCCUGUGCUACACAUCGUAUGUACCGAAUCGGGAAAAAGGGAGGGAAAAAAAGGGAAAGUAUUAUGUUACGCCGUUCGGAUCUGCACUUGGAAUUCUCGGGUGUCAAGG; result = -0.25
Sequence = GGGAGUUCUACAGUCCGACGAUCCCUGUGCUACACAUCGUAUGUACCGAAUCGGGCCCCCCGGGGCCCCCCGGGGCCCCCCGGAAAGUAUUAUGUUACGCCGUUCGGAUCUGCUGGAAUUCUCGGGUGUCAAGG; result = -1.78
Sequence = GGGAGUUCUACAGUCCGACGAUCCCUCAAGUCCUGUGCUACACAUCGUAUGUACCGAAUCGGGGCGGGCGGCGGGAAAGUAUUAUGUUACGCCGUUCGGAUCUGCACUUCCAGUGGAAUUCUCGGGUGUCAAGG; result = -0.342
Sequence = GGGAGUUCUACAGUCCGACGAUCCCUGUGCUACACAUCGUAUGUACCGAAUCGGGGUUUUUUUGGGGAAAGGGGAAAAAGGGGAAAGUAUUAUGUUACGCCGUUCGGAUCUGCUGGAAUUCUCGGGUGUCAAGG; result = 0.428
